Assay results pooled from the literature.
A part holds a random share of what one study measured.

Sample 1 — method: protein binding microarray; molecule type: double-stranded DNA, one strand shown; medium: in vitro; tested at: not given; relative to: not given; reading: higher = stronger binding
Target: Histone acetyltransferase KAT6A, both winged helices, GST fusion (KAT6A, Homo sapiens, UniProt Q92794, residues 1-181)
Notes: 8-mer, flanks averaged, mean of 2 arrays, mostly near background
Residues (chain): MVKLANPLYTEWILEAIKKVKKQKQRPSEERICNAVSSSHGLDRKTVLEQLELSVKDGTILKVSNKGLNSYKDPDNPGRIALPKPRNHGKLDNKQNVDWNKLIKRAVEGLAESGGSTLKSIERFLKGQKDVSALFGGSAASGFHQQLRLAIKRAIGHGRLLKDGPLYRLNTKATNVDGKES
`GAATTGAA` has an E-score of -0.0636.
`CGCTATTC` has an E-score of 0.21.
For `AGGCACAG`, the E-score was -0.148.
The E-score of `AGTTGTAA` is reported as -0.0416.
`GTCACGAA` has an E-score of -0.0271.
For `AGCTTAGC`, the E-score was -0.0532.
The E-score of `CGCCGCAG` is reported as 0.127.
The E-score of `AAGTAATG` is reported as -0.0568.
`CCCCCTTC` gave an E-score of -0.357.
`ATGAGGCG` gave an E-score of 0.094.
The E-score of `TATGAAAA` is reported as -0.00336.
`CCTGGGCG` has an E-score of -0.00209.
The E-score of `CCTGTACC` is reported as -0.108.
The E-score of `TCCACACA` is reported as -0.1.
With `CACATGTC` the E-score was -0.0569.
`GCTGCACA` gave an E-score of 0.0284.

Sample 2 — method: RNA Bind-n-Seq; molecule type: RNA; medium: in vitro; tested at: not given; notes: RNA with constant flanks, ends assumed; relative to: input RNA pool; reading: higher = stronger binding
Target: RING finger protein unkempt homolog, zinc fingers 1-6, GST-SBP tag (UNK, Homo sapiens, UniProt Q9C0B0, residues 30-357)
Chain of UniProt Q9C0B0 (30-357, looked up): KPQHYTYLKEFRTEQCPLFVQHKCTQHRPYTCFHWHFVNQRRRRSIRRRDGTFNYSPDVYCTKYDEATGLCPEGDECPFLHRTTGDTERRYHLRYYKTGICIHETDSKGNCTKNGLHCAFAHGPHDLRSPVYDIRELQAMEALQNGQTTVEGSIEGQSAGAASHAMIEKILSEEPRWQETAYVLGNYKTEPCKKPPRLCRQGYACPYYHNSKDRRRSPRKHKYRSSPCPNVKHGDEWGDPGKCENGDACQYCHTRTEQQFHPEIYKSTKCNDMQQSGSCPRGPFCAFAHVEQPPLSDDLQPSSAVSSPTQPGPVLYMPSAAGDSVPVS
All sequences stand within: GGGAGUUCUACAGUCCGACGAUC … CAACAGAGGAUUGAGCAUCA
`GAGGAAUGUAAUUCCCUGAGUGAUGUGUUAGAUGCAUUUUCAAAAGCGCCCACAUUUCCCCGCCGCAACUAUUUCACAGCAAUGUGGACAAUUGCCAAAAGACUGUCUGAUGACCAGAAG` has a bound/input enrichment of 0.202 ratio.
The bound/input enrichment of `GACAUCUGUCGUAGAAACCUCGAUAUUGAGCGUCCAACCUAUACUAACCUGAAUAGGUUAACCGGUCAAAUUGUGUCCUCCAUCACUGCUUCCCUGAGAUUUGAUGGAGCCCUGAAUGUU` is reported as 0.109 ratio.
`AUGCAGUGGCUUGGGAAACAUGUGGACUCCGAGGGAGAAAUAAAAUCCGGCCAGCUCUCUCUCCGAUUUGUUUCAUCCUACGUGUCUGAAGUAGAAAUAACCCCAUCUUGUAUACCUGUG` has a bound/input enrichment of 0.615 ratio.
The bound/input enrichment of `UGUUUGGUUCUGUGUAUGCAGACACAUGAGCUGUGGGGUAACAAUCAAAACGUAAUCUUUCACCGACCGCCAUUACAUUUCUUUAAAUUUUUCAAUGCCGAUGUGUAUUCUAUAAGAGAA` is reported as 1.01 ratio.
The bound/input enrichment of `CUGGGACCUGAAGGACUUGAACUUAUUGAGAAACUCCUCCAGAACAGAAUUACAAUUGUGGACCGAUUUCUUAAUUCUUCAAAUGAUCAUAGGUUUCAGGCUCUUCAAGACAAUUGUAAA` is reported as 0.122 ratio.
For `GCUGCAUCUGACAGAGCAAGUAGACGAGAGGCUGGGUGGUGGGCUCCGGCCAGCCCGAGUCUCCGAGCUGGUGGUUGGUUAUAUCUGGUGCCUGUCUCGAGGAGGGCUUGAGACACAGUG`, the bound/input enrichment was 0.274 ratio.
For `UUUUAAGUGUGUCAUUGCCCUCCCCUGUGGUCAUCUGGGUACCCCUGCCCAUCCAUUGUUUUCCGAACAACCCUAACUGCUUCGGAAAACACUCCCAAGAACUCUAGUGUUGGUUUGUCU`, the bound/input enrichment was 0.884 ratio.
`CGAGUUGAUCAAGGGGCUGCAACAGCUCUCAGUAGGAAAGACAAUGCCAGCAACAUAUACCGCAAAAAUACUGACUAUACUGAACUUCACCAGCAAAAUACAGAUUUGAUAUAUCAGACU` has a bound/input enrichment of 1.96 ratio.
`AAUUUUCUUACUGGCCAGAGUUCUUGGUGGAGAAGUUGCAUAUGGCCAAGUCCUUGGAGUUACCGGAUAUUCAUUACUUCCUCUCAUUGUAAUAGCCCCUGUACUUUUGGUGGUUGGAUC` has a bound/input enrichment of 0.54 ratio.
For `UCUCUUCUUACUCAUUACUGCAAAUUGAUUGUCUUUCCCCCCUCCCUCCAGUACCAUAAUCUCCGAGACAAACCUUAAAACAGCUGUUUUUAGGCUGUUCCUUGUACUCUUAGGAUAUUU`, the bound/input enrichment was 1.36 ratio.
For `ACAAGUAUUUUAAUUUAAGUUCAGUGAACUUUUUUGUAGCUGGGUUAAAUCUUUUUAUUUCCGUAUGGCCUUAUGGCAAAGAACACUGUAUUAUUUUAAUAAUCACACAAUUGUGACGGA`, the bound/input enrichment was 0.654 ratio.

Sample 3 — method: RNA Bind-n-Seq; molecule type: RNA; medium: in vitro; tested at: 1 µM; notes: whole 134-nt RNA, ends assumed; with: 150 mM KCl; relative to: input library; reading: higher = stronger binding
Target: Ras GTPase-activating protein-binding protein 1, C-terminal RGG region (G3BP1, Homo sapiens, UniProt Q13283)
Chain of UniProt Q13283 (whole entry, looked up): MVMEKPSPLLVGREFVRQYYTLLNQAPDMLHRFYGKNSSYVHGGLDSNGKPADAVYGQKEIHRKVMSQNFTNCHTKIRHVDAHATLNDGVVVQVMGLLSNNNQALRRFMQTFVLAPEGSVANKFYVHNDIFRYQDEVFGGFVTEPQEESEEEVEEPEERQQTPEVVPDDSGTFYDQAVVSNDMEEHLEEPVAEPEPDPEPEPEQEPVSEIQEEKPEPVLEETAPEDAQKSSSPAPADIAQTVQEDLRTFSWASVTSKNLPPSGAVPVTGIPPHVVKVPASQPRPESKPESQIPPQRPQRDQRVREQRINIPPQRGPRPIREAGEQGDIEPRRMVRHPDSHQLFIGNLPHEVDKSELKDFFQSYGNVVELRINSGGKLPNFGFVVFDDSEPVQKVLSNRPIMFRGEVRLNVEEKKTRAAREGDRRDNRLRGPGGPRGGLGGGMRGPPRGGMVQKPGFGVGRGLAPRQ
All sequences stand within: GGGAGUUCUACAGUCCGACGAUC … UGGAAUUCUCGGGUGUCAAGG
For `AGUCCUGUGCUACACAUCGUAUGUACCGAAUCGGUUUUUUUGGAAAAAGGAAAAAGGAAAGUAUUAUGUUACGCCGUUCGGAUCUGCACU`, the log2 enrichment was -2.3.
`CUGUGCUACACAUCGUAUGUACCGAAUCGGGAAAAAAAGGAAAAAAAGGGAAAAAAAGGGGAAAGUAUUAUGUUACGCCGUUCGGAUCUG` gave a log2 enrichment of -1.51.
For `AGUCCUGUGCUACACAUCGUAUGUACCGAAUCGGGGCCCCGGGCCCCGGGGCCCCGGAAAGUAUUAUGUUACGCCGUUCGGAUCUGCACU`, the log2 enrichment was -1.11.
For `UCAAGUCCUGUGCUACACAUCGUAUGUACCGAAUCGGGAAAGGAAAGGAAAGGGAAAGUAUUAUGUUACGCCGUUCGGAUCUGCACUUCC`, the log2 enrichment was -1.44.
For `CACAGACAACACGCACCCACACAGACACAGAGGGAAGGGGUUGGGAUGGGGACAGGGUGCACACCAGGGCGGGGUAGGACCCCAGCCCCU`, the log2 enrichment was -0.0318.
With `CUCAAGUCCUGUGCUACACAUCGUAUGUACCGAAUCGGGAAGGGAAGGAAGGGGAAAGUAUUAUGUUACGCCGUUCGGAUCUGCACUUCC` the log2 enrichment was 1.11.
`UACUCUCUCGGGGCUGGAAGCUUCCUGACUGAAGAUCUCUCUGCACUUGGGGUUCUUUCUAGAACAUUUUCUAGUCCCCCAACACCCUUU` gave a log2 enrichment of 0.814.
The log2 enrichment of `AGUCCUGUGCUACACAUCGUAUGUACCGAAUCGGGGUUUUUUUGGGGAGGGGAGGGGAAAGUAUUAUGUUACGCCGUUCGGAUCUGCACU` is reported as 2.46.
`CAAGUCCUGUGCUACACAUCGUAUGUACCGAAUCGGAAAAAAAGGUUUGGUUUGGAAAGUAUUAUGUUACGCCGUUCGGAUCUGCACUUC` has a log2 enrichment of -1.91.
`CCUCAAGUCCUGUGCUACACAUCGUAUGUACCGAAUCGGAAAGGAAAGGAGGAAAGUAUUAUGUUACGCCGUUCGGAUCUGCACUUCCAG` has a log2 enrichment of -0.864.
For `UCCUGUGCUACACAUCGUAUGUACCGAAUCGGGGAAAAAGGGGAGGGGAAAAAAAGGGGAAAGUAUUAUGUUACGCCGUUCGGAUCUGCA`, the log2 enrichment was 1.15.
`ACCAUGCAGGUGGGCAUCUUUGGGAAGUGGGGCAAGGGGGGGAUAGGGAGGGGGCUAACACUUUGGGAACAGGUGGUCCCAGGUCGUUUC` has a log2 enrichment of 1.8.
`UGGGAGGUGGAUUUUGUUUGUUUUUUUAGCUCAUUUCCAGGGGUGGGAAUUUUUUUUUAAUAUGUGUCAUGAAUAAAGUUGUUUUUGAAA` has a log2 enrichment of 1.94.
For `CUGUGCUACACAUCGUAUGUACCGAAUCGGAAAAAAAGGGGAAAAAAAGGGAAAAAAAGGGAAAGUAUUAUGUUACGCCGUUCGGAUCUG`, the log2 enrichment was -1.44.

Sample 4 — method: RNA Bind-n-Seq; molecule type: RNA; medium: in vitro; tested at: 365 nM; relative to: no-protein control; reading: higher = stronger binding
Target: RNA binding protein fox-1 homolog 2, RRM domain, GST-SBP tag (RBFOX2, Homo sapiens, UniProt O43251-10, residues 100-194)
Notes: natural RNA segment, single round, ends assumed
All sequences stand within: GGGAGUUCUACAGUCCGACGAUC … UGGAAUUCUCGGGUGCCAA
Construct (chain): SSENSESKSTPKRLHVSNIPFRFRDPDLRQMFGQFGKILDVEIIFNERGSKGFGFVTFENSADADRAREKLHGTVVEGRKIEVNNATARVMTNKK
`GUGUUGGAAGGAGUGGCCUGGCCAGGCAGGUUGAUGUAAGGCUAUGGGAGACCCAAGGGGAACACAUGCUGCCUCUGCUGAAAGACCCUGGGUUUUUCUUGGAAGAAAGG`: “RBNS enrichment (R)” 0.776.
Under “RBNS enrichment (R)”, `UCUUCCCUGAUCCCACCAUCCUACCUACGCCCCCCCUCCCCUCAGCCCUAGUCUCCUCCAUUGACAGUCAUCCAUCUCUGCCUAAGGGACAAAGAAAUCCUUCUACCUGA` is recorded as 0.694.
Under “RBNS enrichment (R)”, `AAGGACUCCUAAGCGCCGAAGCCAAGGAGCCUCCUCCCUUCCUGGUUCACCCCGCCCAAGGGACCUGCCCCCAUUCCUGUGGCCCUGGGGCCCAGCUUCCAAUAGUGUCA` is recorded as 0.215.
For `UGAAUAGAUAUCUGCGGGGAACCUGGGGCAUUUUGGGGAACCCUGGGGUCUUUUACAGGUCAUGUUGGUUGCUGCUGCUUCUGUCAGGAAGUACCCUAGCUCCACGUACU`, “RBNS enrichment (R)” read 0.633.
`AUGCUUAAGAAUAAUUGCCUCUUGGGCAAGAUGAUUGGGCUCCUGGCAAAUGUUCAAUUAAAAAGUGACUAUAGUGAAAAUGAAAUAAAUUAUGGGGGAAAGGUGGCUGU`: “RBNS enrichment (R)” 1.16.
For `GGCAUUAAUAAGGGAGCUUACCAUUCUGGUGGGAUGUGCAUGAGGCGUUCACAGCCCCCAUACAUGGAUCUUGUUUAAAGUGUAUUAUUUAAAAGGUCAGGGUGUUAUUU`, “RBNS enrichment (R)” read 1.03.
`GCUCGGCCUGGGGCUAAAAGGACUUUGCACUGCCAUUUCUGAGGCAGGAGUCACAGUUGAGAGCUGGGCUUCCUGCCUCUUACAUACAAUAAAGAGAUUGCUAACACUGG` — result for “RBNS enrichment (R)”: 1.23.
`CGUGAACAUUGUGCCGUACCUGAGAUGGUCUGUGGACUGCUGCUUCAGACACACGAGUCCUCGGAACUGCCUGGCUGCCUGUCACGCAUGCUCUGAGUCAGAACACACCA`: “RBNS enrichment (R)” 10.1.
For `ACACGCAGGCGGGCGACGGAACUUGAAGGGUUAUUGACAUGCAAAUGCUGGUGUUUGAUUUCCUGUGUUGUUGCCUCAGCGUUAAGGGCAUUUCCGUUUGCAGUUCUACU`, “RBNS enrichment (R)” read 2.43.
`UCGUAGAGAGAAUCAAGGCUACCAUGUGUUUUCUCAUGAGUCAGAAGAUGGCUCAGGAAGCCACUGUCACGGUUCCUGGAGGCUGGGCCCUCUCAUUGACAUGUACACUA`: “RBNS enrichment (R)” 0.502.
`GUCACCCAGAGUAGCGGCUGCCCUGGUAGCCGAGAGCAGGCAAGGCUCUAAGAGCACUGUGCUUGGGAAAGUUGUGAUUAACAGCUUUUAAGAGGGCCCCUACCCCCAGU` — result for “RBNS enrichment (R)”: 0.254.
Under “RBNS enrichment (R)”, `AAGAAUGCAUUGAUAUUGUGAACAUUUGUGAUACAUGUAUUAAUAAAUAGAGCAAUUAAAAAUGGCUAUGUUGUGGUUUUCUUCUUUGAUUGCGAUGACAAUCUCUGAAU` is recorded as 0.362.

Some of these lines once more (sample 4):
`AUGCUUAAGAAUAAUUGCCUCUUGGGCAAGAUGAUUGGGCUCCUGGCAAAUGUUCAAUUAAAAAGUGACUAUAGUGAAAAUGAAAUAAAUUAUGGGGGAAAGGUGGCUGU`: “RBNS enrichment (R)” 1.16.
For `GGCAUUAAUAAGGGAGCUUACCAUUCUGGUGGGAUGUGCAUGAGGCGUUCACAGCCCCCAUACAUGGAUCUUGUUUAAAGUGUAUUAUUUAAAAGGUCAGGGUGUUAUUU`, “RBNS enrichment (R)” read 1.03.
`GCUCGGCCUGGGGCUAAAAGGACUUUGCACUGCCAUUUCUGAGGCAGGAGUCACAGUUGAGAGCUGGGCUUCCUGCCUCUUACAUACAAUAAAGAGAUUGCUAACACUGG` — result for “RBNS enrichment (R)”: 1.23.
